# Experimental data gathered from unrelated publications.
# Parts stem from different laboratories: compare values within a part only.
# UniProt Q9NWZ3, sequence (whole entry, looked up): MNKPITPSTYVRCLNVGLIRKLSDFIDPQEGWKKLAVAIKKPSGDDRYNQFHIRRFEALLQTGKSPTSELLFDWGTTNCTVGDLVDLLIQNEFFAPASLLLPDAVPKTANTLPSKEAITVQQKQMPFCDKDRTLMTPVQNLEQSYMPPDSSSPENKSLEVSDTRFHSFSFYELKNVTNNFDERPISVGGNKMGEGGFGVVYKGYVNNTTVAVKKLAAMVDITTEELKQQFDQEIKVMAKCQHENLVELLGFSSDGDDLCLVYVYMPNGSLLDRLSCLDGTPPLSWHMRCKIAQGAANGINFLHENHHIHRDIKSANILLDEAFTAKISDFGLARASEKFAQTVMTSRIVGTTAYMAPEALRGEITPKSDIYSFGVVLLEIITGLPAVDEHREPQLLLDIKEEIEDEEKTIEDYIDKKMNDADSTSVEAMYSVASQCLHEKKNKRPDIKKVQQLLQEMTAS
# UniProt P51957, sequence (whole entry, looked up): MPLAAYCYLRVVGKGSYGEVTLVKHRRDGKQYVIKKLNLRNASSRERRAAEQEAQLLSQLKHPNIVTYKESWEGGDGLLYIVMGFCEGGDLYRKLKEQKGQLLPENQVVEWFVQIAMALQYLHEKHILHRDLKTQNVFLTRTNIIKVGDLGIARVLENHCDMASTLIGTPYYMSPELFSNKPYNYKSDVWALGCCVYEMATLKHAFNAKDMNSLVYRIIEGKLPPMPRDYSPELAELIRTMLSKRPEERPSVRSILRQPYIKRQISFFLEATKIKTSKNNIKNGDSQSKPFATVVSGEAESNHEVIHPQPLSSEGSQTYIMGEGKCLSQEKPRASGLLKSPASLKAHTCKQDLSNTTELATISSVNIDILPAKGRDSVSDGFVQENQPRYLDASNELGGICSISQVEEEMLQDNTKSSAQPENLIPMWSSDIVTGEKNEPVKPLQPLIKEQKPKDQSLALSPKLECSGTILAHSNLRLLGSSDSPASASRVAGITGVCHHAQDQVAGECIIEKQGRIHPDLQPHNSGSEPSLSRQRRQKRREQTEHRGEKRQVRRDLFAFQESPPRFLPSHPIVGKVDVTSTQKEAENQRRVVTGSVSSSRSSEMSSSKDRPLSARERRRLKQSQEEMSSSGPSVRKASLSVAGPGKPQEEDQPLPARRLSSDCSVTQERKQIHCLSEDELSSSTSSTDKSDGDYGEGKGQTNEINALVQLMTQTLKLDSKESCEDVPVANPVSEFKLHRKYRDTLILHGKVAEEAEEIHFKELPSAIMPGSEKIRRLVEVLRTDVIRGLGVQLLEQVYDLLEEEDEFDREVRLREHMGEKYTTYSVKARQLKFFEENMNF
# UniProt P68400, sequence (whole entry, looked up): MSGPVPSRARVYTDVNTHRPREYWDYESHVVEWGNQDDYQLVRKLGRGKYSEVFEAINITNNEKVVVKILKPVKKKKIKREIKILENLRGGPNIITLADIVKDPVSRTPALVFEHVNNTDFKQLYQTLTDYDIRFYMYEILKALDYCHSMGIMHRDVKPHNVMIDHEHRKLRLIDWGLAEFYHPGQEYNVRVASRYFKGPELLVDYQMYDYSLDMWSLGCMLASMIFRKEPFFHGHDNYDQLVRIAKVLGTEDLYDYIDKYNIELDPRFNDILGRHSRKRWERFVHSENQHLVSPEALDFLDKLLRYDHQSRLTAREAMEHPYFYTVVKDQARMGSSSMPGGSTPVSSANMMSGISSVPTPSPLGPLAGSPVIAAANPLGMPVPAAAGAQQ
# UniProt P52564, sequence (whole entry, looked up): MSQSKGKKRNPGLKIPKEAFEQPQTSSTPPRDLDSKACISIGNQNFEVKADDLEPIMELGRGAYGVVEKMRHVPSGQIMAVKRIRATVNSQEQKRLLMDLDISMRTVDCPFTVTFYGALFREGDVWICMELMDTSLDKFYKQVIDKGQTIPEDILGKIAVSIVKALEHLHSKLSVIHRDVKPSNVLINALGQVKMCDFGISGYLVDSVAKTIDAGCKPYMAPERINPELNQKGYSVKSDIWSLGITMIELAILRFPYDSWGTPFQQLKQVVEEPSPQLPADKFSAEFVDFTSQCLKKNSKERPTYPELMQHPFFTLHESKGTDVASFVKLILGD
# UniProt P50750, sequence (whole entry, looked up): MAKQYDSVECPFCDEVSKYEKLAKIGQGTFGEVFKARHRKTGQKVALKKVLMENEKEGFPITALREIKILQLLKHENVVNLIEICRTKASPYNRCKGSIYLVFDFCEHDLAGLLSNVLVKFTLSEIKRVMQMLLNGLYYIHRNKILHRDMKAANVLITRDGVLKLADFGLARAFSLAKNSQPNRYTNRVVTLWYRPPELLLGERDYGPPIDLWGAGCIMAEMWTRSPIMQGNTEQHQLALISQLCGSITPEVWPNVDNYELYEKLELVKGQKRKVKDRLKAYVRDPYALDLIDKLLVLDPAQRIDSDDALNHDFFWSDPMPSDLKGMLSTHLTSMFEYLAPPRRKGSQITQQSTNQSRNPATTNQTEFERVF
# UniProt Q05655, sequence (whole entry, looked up): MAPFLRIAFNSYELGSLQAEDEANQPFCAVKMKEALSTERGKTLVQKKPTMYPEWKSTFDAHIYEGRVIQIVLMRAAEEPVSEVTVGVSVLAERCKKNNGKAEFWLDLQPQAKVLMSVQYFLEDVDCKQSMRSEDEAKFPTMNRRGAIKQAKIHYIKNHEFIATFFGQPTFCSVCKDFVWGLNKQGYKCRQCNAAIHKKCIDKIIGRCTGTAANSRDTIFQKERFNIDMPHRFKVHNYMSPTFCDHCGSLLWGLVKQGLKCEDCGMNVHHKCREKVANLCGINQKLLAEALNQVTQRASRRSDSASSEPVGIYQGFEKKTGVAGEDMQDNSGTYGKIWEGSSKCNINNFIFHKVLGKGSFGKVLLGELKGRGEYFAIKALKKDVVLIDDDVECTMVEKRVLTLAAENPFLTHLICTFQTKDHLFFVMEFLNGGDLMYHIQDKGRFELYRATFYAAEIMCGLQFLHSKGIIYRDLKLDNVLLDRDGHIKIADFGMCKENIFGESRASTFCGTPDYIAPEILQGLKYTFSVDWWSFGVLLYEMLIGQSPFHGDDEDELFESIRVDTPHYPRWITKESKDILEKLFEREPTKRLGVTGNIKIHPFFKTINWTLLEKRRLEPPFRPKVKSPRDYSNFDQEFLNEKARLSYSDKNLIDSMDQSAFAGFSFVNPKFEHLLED
# UniProt Q15208, sequence (whole entry, looked up): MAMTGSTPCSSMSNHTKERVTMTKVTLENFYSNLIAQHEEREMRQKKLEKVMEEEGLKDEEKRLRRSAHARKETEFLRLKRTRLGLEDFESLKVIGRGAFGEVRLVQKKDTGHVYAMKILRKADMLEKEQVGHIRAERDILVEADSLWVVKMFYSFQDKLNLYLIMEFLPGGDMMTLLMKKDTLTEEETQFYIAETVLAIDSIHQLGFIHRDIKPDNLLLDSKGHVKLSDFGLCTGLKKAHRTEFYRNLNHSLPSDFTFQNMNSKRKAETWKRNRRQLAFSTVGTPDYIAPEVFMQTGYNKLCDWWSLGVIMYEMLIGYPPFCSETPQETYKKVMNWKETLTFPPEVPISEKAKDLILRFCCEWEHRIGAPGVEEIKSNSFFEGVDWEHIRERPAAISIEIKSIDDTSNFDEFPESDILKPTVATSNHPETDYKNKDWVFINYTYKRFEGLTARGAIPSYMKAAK
# UniProt P48729, sequence (whole entry, looked up): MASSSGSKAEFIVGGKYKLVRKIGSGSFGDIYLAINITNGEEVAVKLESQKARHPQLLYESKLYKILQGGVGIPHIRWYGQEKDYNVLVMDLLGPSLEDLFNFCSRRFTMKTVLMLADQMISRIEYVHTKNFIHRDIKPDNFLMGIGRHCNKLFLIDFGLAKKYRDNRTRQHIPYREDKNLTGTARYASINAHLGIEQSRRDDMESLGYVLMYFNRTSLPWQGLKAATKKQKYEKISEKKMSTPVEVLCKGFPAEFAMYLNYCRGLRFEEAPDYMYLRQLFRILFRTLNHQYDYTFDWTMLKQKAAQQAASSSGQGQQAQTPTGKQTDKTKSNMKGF
# UniProt O14757, sequence (whole entry, looked up): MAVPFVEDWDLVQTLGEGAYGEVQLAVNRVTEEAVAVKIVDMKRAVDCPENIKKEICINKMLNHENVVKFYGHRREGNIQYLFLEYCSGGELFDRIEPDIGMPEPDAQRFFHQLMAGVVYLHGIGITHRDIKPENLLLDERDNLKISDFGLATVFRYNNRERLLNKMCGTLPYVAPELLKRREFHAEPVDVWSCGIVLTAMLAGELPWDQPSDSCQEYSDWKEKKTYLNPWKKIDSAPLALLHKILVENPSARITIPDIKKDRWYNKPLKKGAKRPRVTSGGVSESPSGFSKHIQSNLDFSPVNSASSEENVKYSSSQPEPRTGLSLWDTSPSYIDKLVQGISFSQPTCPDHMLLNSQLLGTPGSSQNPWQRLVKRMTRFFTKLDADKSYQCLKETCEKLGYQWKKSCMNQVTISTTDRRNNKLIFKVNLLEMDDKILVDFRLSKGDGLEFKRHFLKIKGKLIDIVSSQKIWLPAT

# Study 1 — observed: acetyl-histone H4 peptide binding; technique: AlphaScreen displacement; tested at: 50 µM
# Target: Bromodomain-containing protein 4, BD1 (BRD4, Homo sapiens, UniProt O60885)
SMILES,inhibition
COc1ccc(Nc2ncc(F)c(Nc3ccc(OC)cc3)n2)cc1,28.3%
O=c1c2ccccc2[nH]c(=S)n1CCN1CCC(=C(c2ccc(F)cc2)c2ccc(F)cc2)CC1,42.9%
O=C1NC(=O)/C(=C/c2ccc(-c3nc4ccccc4s3)o2)S1,11.3%
CN1CCN(Cc2c(-c3ccco3)[nH]c3ncccc23)CC1,4.2%
CN(C)CC1CCn2cc(c3ccccc32)C2=C(C(=O)NC2=O)c2cn(c3ccccc23)CCO1 (stereo not drawn),91%
COc1ccc(-c2nsc3c(=O)[nH]cnc23)cc1,28.7%
COc1ccc(C(=O)Nc2ccc3[nH]ncc3c2)c(OC)c1,1.1%
Cc1ccc(C(=O)O)cc1-c1ccc(C=C2NC(=O)N(c3ccccc3)C2=O)o1,1.1%
COc1ccc(C(C#N)=Cc2ccccn2)cc1OC,-2.9%
O=c1n(Cc2ccccc2)sc(=S)n1Cc1ccccc1,-16.6%
CC(=O)CCCCn1c(=O)c2c(ncn2C)n(C)c1=O,2.8%
O=C(CSc1ccc2nnc(-c3ccc(Cl)cc3)n2n1)N1CCOCC1,5.7%
Nc1[nH]nc2nnc(-c3c(-c4ccccc4)nn4ccccc34)cc12,16.1%

# Study 2 — SMILES: CCc1[nH]c(-c2ccc(OC)cc2)nc1-c1ccncc1; observed: enzyme activity; mode: inhibitor; tested at: 0.5 µM; reference: control
target,remaining activity [%]
"Protein kinase C delta type (PRKCD, Homo sapiens, UniProt Q05655)",98.5
"Serine/threonine-protein kinase WNK2 (WNK2, Homo sapiens, UniProt Q9Y3S1)",104
"Serine/threonine-protein kinase Nek4 (NEK4, Homo sapiens, UniProt P51957)",95.2
"Serine/threonine-protein kinase PLK2 (PLK2, Homo sapiens, UniProt Q9NYY3)",101
"MAP kinase-interacting serine/threonine-protein kinase 2 (MKNK2, Homo sapiens, UniProt Q9HBH9)",88.2
"Mitogen-activated protein kinase kinase kinase kinase 2 (MAP4K2, Homo sapiens, UniProt Q12851)",106
"Dual specificity mitogen-activated protein kinase kinase 6 (MAP2K6, Homo sapiens, UniProt P52564)",110
"Mast/stem cell growth factor receptor Kit (KIT, Homo sapiens, UniProt P10721)",92.7
"Interleukin-1 receptor-associated kinase 4 (IRAK4, Homo sapiens, UniProt Q9NWZ3)",111
"Mitogen-activated protein kinase kinase kinase 10 (MAP3K10, Homo sapiens, UniProt Q02779)",102
"RAC-gamma serine/threonine-protein kinase (AKT3, Homo sapiens, UniProt Q9Y243)",101
"Serine/threonine-protein kinase 38 (STK38, Homo sapiens, UniProt Q15208)",102
"Tyrosine-protein kinase BTK (BTK, Homo sapiens, UniProt Q06187)",106
"cGMP-dependent protein kinase 1 (PRKG1, Homo sapiens, UniProt Q13976)",81
"Ephrin type-A receptor 5 (EPHA5, Homo sapiens, UniProt P54756)",100
"Cyclin-dependent kinase 9, with cyclin T1 (CDK9, Homo sapiens, UniProt P50750)",88.5
"Serine/threonine-protein kinase Chk1 (CHEK1, Homo sapiens, UniProt O14757)",98.6
"Leucine-rich repeat serine/threonine-protein kinase 2 (LRRK2, Homo sapiens, UniProt Q5S007)",96.7
"Casein kinase I isoform alpha (CSNK1A1, Homo sapiens, UniProt P48729)",99.4
"Tyrosine-protein kinase Lyn (LYN, Homo sapiens, UniProt P07948)",103
"Casein kinase II subunit alpha (CSNK2A1, Homo sapiens, UniProt P68400)",95.3

# Study 3 — organism: Sarcocystis neurona; observed: parasite growth; tested at: 10 µM; time: 96 h; setting: first screen
SMILES,inhibition [%]
NC(=O)c1cccnc1,26.7
CN(C)CCC(c1ccc(Cl)cc1)c1ccccn1 (stereo not drawn),-6.4
CCOc1ccc2ccccc2c1C(=O)N[C@@H]1C(=O)N2[C@@H]1SC(C)(C)[C@@H]2C(=O)O,-3.4
CC(=O)OCC(=O)[C@@]12OC3(CCCC3)O[C@@H]1C[C@H]1[C@@H]3CCC4=CC(=O)C=C[C@]4(C)[C@@]3(F)[C@@H](O)C[C@@]12C,11.6
CCCNC(C)C(=O)Nc1ccccc1C (stereo not drawn),-4.1
Oc1ncnc2[nH]ncc12,-10
CC1(C)O[C@@H]2[C@@H](CO[C@@]3(COS(N)(=O)=O)OC(C)(C)O[C@@H]23)O1,-2.8
Nc1ncnc2c1ncn2[C@@H]1O[C@H](CO)[C@@H](O)[C@@H]1O,-9.2
Nc1ccn([C@@H]2CS[C@H](CO)O2)c(=O)n1,5.8
CO[C@@]1(NC(=O)Cc2cccs2)C(=O)N2C(C(=O)O)=C(COC(N)=O)CS[C@@H]21,-15.7
Nc1nc2c(ncn2COCCO)c(=O)[nH]1,-12.7
O=C(O)CCNC(=O)c1ccc(/N=N/c2ccc(O)c(C(=O)O)c2)cc1,-12.4
CC(C)(C)NC(=O)[C@@H]1CN(Cc2cccnc2)CCN1C[C@@H](O)C[C@@H](Cc1ccccc1)C(=O)N[C@H]1c2ccccc2C[C@H]1O,-17.5
CCCN1C[C@H](CSC)C[C@@H]2c3cccc4[nH]cc(c34)C[C@H]21,-4
CN1CCC(=C2c3ccccc3CC(=O)c3sccc32)CC1,15.5
Nc1nc2c(ncn2CCC(CO)CO)c(=O)[nH]1,3.9
CC[N+](C)(C)c1cccc(O)c1,-20.1
CCOC(=O)N1CCC(=C2c3ccc(Cl)cc3CCc3cccnc32)CC1,21
CC/C(=C(\c1ccccc1)c1ccc(OCCN(C)C)cc1)c1ccccc1,21.5
CN(C)CCCN1c2ccccc2CCc2ccccc21,-7.1

# Study 4 — observed: binding; technique: radioligand binding; tested at: 10 µM
# Target: 5-hydroxytryptamine receptor 7 (HTR7, Homo sapiens, UniProt P34969)
# UniProt P34969, sequence (whole entry, looked up): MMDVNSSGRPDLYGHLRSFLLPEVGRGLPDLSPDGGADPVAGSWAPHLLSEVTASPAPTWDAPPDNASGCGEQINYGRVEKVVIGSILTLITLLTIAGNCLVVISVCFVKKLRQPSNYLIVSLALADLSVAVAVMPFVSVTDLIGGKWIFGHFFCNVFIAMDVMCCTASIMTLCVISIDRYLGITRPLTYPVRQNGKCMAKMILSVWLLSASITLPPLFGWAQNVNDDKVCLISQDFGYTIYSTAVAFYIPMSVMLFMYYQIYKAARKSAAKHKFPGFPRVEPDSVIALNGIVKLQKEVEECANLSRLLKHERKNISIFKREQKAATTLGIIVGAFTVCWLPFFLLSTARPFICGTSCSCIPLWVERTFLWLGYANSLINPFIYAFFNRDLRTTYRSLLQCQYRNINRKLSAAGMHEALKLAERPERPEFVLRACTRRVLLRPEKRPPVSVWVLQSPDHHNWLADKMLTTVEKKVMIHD
SMILES,inhibition [%]
Cc1nc(N2CC[C@@H](O)C2)ncc1-c1cc(C(F)(F)F)cc2[nH]ncc12,10.8
Cc1c(NC(=O)c2cc(C(N)=O)nc3cc(F)ccc23)c(C(F)(F)F)nn1Cc1ccc(C(C)(C)C)cc1,-19.1
CNC(=O)Nc1ccc2c(c1)[C@]1(CC2)OC(=O)N(CC(=O)N(Cc2ccc(F)cc2)[C@@H](C)C(F)(F)F)C1=O,-13
CC(C)CC(=O)N1CCc2nc(-c3ccc(Br)cc3)nc(N(C)Cc3ccccc3)c2C1,64.5
CN1C(=O)[C@@H](N2CCc3cn(Cc4ccccc4)nc3C2=O)COc2ccccc21,-1.17
C[C@@]1(Cc2ccc(C#N)cc2)C(=O)N(c2cc(Cl)cc(Cl)c2)c2ncc(C(=O)NC3(c4nc(C5CCC5)no4)CC3)n21,4.18
COc1cc(-c2cn(C3CCc4ccccc4N(CC(F)(F)F)C3=O)nn2)ccc1-n1ccc(C)n1 (stereo not drawn),5.84
C[C@H](NC(=O)c1cnc2n1[C@](C)(Cc1ccc(C#N)cc1)C(=O)N2c1cc(Cl)c(F)c(Cl)c1)C(=O)NC1(c2ccccn2)CC1,-4.31
CN([C@@H]1CCc2c(CC(=O)O)c3cc(S(C)(=O)=O)ccc3n2C1)S(=O)(=O)c1ccc(F)cc1,-3.44
CCOC(=O)c1cc2cc(-c3cc(C(=O)NCc4ccc(C(=O)O)cc4)nn3C)ccc2[nH]1,5.88
O=C1CCc2cc(Nc3cc(OC4CCOCC4)c([N+](=O)[O-])cc3Cl)ccc2N1,12.3
CS(=O)(=O)NCC[C@H](NC(=O)c1cncc2c1cnn2-c1ccc(F)cc1)c1ccnc(S(C)(=O)=O)c1,4.81
Cc1c[nH]c2nccc(Oc3c(F)cc(Nc4cc(Cl)nc(N)n4)cc3F)c12,9.29
CC(=O)Nc1c(F)cc(C(=O)N[C@H]2CC[C@H](O)CC2)cc1O[C@@H](C)c1ccccc1,17.6
CN(C)C(=O)Cn1cc(-c2nc([C@@](C)(c3ccc(-c4cnc(N)nc4)cc3)C3CC3)no2)cn1,-27.7
Nc1c(C(=O)NCc2ccc(C(=O)NCCCC3CCCCC3)cc2)cnn1-c1ccccc1,13.2
Cc1nc(Cc2cccc(C(F)(F)F)c2)sc1-c1ccc(C(N)=O)nc1,16.4
COCCc1ccc(-c2c(C)nc3c(N4CCOCC4)ccnn23)cn1,96.1
CC1=C(C#N)[C@@H](c2ccc3[nH]nc(C)c3c2)C(C#N)=C(c2ccc(Cl)cc2)N1,8.19
O=C(Nc1cnc(Oc2ccc(F)cc2)nc1)N1CCc2ncccc2[C@@H]1c1ccc(F)cc1,2.63
Cc1cc(-n2nc(Cc3cc(F)cc(C(F)(F)F)c3)nc2C)ccc1C(N)=O,21.4

# Repeated from above (study 3):
SMILES,inhibition [%]
CCCNC(C)C(=O)Nc1ccccc1C (stereo not drawn),-4.1
CCOc1ccc2ccccc2c1C(=O)N[C@@H]1C(=O)N2[C@@H]1SC(C)(C)[C@@H]2C(=O)O,-3.4
CC[N+](C)(C)c1cccc(O)c1,-20.1
Nc1ccn([C@@H]2CS[C@H](CO)O2)c(=O)n1,5.8
CN1CCC(=C2c3ccccc3CC(=O)c3sccc32)CC1,15.5
CO[C@@]1(NC(=O)Cc2cccs2)C(=O)N2C(C(=O)O)=C(COC(N)=O)CS[C@@H]21,-15.7
CN(C)CCC(c1ccc(Cl)cc1)c1ccccn1 (stereo not drawn),-6.4
Nc1nc2c(ncn2COCCO)c(=O)[nH]1,-12.7
